Experimental data pooled from the literature.
Each line is one published result; not all experiments were run side by side.
ULK3: Serine/threonine-protein kinase ULK3 (ULK3, Homo sapiens, UniProt Q6PHR2)
TDP1: Tyrosyl-DNA phosphodiesterase 1 (TDP1, Homo sapiens, UniProt Q9NUW8)
Sequence of UniProt Q9NUW8 (whole entry, looked up): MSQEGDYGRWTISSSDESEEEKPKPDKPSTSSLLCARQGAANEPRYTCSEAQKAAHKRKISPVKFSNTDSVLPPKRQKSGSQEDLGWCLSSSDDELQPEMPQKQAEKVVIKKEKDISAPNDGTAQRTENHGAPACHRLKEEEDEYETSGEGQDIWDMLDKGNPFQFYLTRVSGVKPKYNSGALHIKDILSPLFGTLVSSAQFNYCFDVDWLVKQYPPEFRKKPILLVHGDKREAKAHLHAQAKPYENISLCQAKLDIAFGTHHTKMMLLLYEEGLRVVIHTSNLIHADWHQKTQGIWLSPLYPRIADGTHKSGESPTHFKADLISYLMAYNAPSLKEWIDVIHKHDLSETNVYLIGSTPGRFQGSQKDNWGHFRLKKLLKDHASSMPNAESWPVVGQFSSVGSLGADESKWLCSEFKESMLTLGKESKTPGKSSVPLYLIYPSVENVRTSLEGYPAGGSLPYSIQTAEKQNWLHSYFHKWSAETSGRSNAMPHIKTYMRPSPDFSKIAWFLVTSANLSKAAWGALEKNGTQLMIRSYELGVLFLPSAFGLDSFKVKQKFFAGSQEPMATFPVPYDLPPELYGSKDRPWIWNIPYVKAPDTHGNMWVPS

SMILES	target	assay	test system	conditions	scale	quantity	value
Cc1cnc2nc1Nc1cccc(c1)COC/C=C/COCc1cc(ccc1OCCN1CCOCC1)N2	ULK3	cell-free assay		0.1 µM		remaining signal	99%
COC(=O)c1ccccc1C=NOCc1ccc2nc(-c3ccccc3)c(Nc3ccc(C(=O)O)cc3)n2c1 (mixture of isomers)	TDP1	enzyme activity, inhibitor		100 µM, unpurified compound		inhibition	30.2%
Cc1ccc(C(=O)Nc2ccc(CN3CCN(C)CC3)c(C(F)(F)F)c2)cc1C#Cc1cnc2cccnn12	ULK3	target engagement, NanoBRET	human cells			upper asymptote	125
COc1c(Cl)cccc1Nc1c(-c2ccncc2C#C[C@@]2(C)CCCN2C(=O)/C=C/CN(C)C)[nH]c2c1C(=O)NCC2	ULK3	binding, competition with immobilised ligand		3 µM		remaining binding	92%
CCn1cc(C(=O)O)c(=O)c2c(N)c(F)c(NC3CCCCC3)cc21	ULK3	kinase activity		0.1 µM, with: ATP at Km		inhibition	20.6%
O=C(O)c1ccc(Nc2c(-c3ccc(CON=Cc4c(O)c(C(=O)O)cc5ccccc45)cc3)nc3cc(-c4ccccc4)ccn23)cc1 (mixture of isomers)	TDP1	enzyme activity, inhibitor		100 µM, unpurified compound		inhibition	102%
Cc1ccc(-c2c(/C=C(\C#N)C(=O)NC(C)C)n(CCCO)c3ncnc(N)c23)cc1	ULK3	cell-free assay, competition with immobilised ligand		1 µM		remaining binding	93%
CNC(=O)C1CCN(c2cc(C)c(F)cc2NC(=O)c2ccc(-c3cc(O)ccc3C)c(C)c2)CC1	ULK3	binding, competition with immobilised ligand		1 µM		remaining binding	79%
COc1c(OCCCN2CCOCC2)ccc2c1N=C(NC(=O)c1cnc(N)nc1)N1CCN=C21	ULK3	kinase activity, inhibitor		1 µM	reference: untreated control	remaining activity	96%
O=C=[N][Ru-4]123([n]4c5ccc(O)cc5c5c6c(c7cc(F)c[n+]1c7c54)C(=O)NC6=O)[S+]1CC[S+]2CC[S+]3CC1 (stereo not shown)	ULK3	enzyme activity		100 nM, human enzyme, with: 10 µM ATP	reference: untreated	remaining activity	109%
CCN1CCN(Cc2ccc(C(=O)Nc3ccc(C)c(NCc4cnc5[nH]ccc5c4OC)c3)cc2C(F)(F)F)CC1	ULK3	binding, competition with immobilised ligand		1 µM		remaining binding	71%
C=CC(=O)N1CCc2ccc(-n3c(=O)ccc4cnc5ccc(-c6cnn(C)c6)cc5c43)cc21	ULK3	KINOMEscan		1 µM	reference: DMSO control	remaining binding	91%
O=C(Cc1ccc(OCc2ccccc2)cc1)NC1(C(=O)O)CCN(C(=O)c2ccc(-c3cccc(Cl)c3)cc2)CC1	ULK3	enzyme activity, inhibitor		10 µM		activity vs control	82%
NC(=O)C[C@H]1CCc2sc3ncnc(O[C@H]4CC[C@H](N5CCOCC5)CC4)c3c21	ULK3	enzyme activity, inhibitor		10 µM		inhibition	2%
COc1cc(Nc2nccc(-c3cnn4nc(OC)ccc34)n2)cc(C(F)(F)F)c1	ULK3	binding, competition with immobilised ligand		1 µM		remaining binding	79%
Nc1ncc2c(n1)-c1c([nH]c3ccc(C4=CCOCC4)cc13)CCC2	ULK3	binding, competition with immobilised ligand		1 µM		remaining binding	98%

Excerpt of the above:
SMILES	target	assay	test system	conditions	scale	quantity	value
O=C(Cc1ccc(OCc2ccccc2)cc1)NC1(C(=O)O)CCN(C(=O)c2ccc(-c3cccc(Cl)c3)cc2)CC1	ULK3	enzyme activity, inhibitor		10 µM		activity vs control	82%
NC(=O)C[C@H]1CCc2sc3ncnc(O[C@H]4CC[C@H](N5CCOCC5)CC4)c3c21	ULK3	enzyme activity, inhibitor		10 µM		inhibition	2%
